Assay results gathered from unrelated publications.
Parts stem from different laboratories: compare values within a part only.

Sample 1
Target: Replicase polyprotein 1ab, nsp13 helicase (rep, Severe acute respiratory syndrome coronavirus 2, UniProt P0DTD1)
Mode: inhibitor
Concentration: 20 µM
Quantity: inhibition
O=C(OC[C@H]1O[C@@H](OC(=O)c2cc(O)c(O)c(OC(=O)c3cc(O)c(O)c(O)c3)c2)[C@H](OC(=O)c2cc(O)c(O)c(OC(=O)c3cc(O)c(O)c(O)c3)c2)[C@@H](OC(=O)c2cc(O)c(O)c(OC(=O)c3cc(O)c(O)c(O)c3)c2)[C@@H]1OC(=O)c1cc(O)c(O)c(OC(=O)c2cc(O)c(O)c(O)c2)c1)c1cc(O)c(O)c(OC(=O)c2cc(O)c(O)c(O)c2)c1: 98%
Cn1cc(C(F)(F)F)nc1-c1ccc(OCC(O)CNCCOc2ccc(O)c(C(N)=O)c2)cc1 (stereo not shown): 0.1%
O=[N+]([O-])c1ccc(O)c([N+](=O)[O-])c1: 6.61%
CC(=O)Oc1ccccc1C(=O)Oc1cccc(CO[N+](=O)[O-])c1: 2.7%
O=S(=O)(O)Oc1ccc(C(c2ccc(OS(=O)(=O)O)cc2)c2ccccn2)cc1: 3.01%
CN(C)CCCC(=O)Nc1ccc(C(=O)Nc2cccc(Nc3ncc(Cl)c(-c4c[nH]c5ccccc45)n3)c2)cc1: -0.29%
CNC(=O)c1cc(Oc2ccc(NC(=O)Nc3ccc(Cl)c(C(F)(F)F)c3)c(F)c2)ccn1: 2.18%

Sample 2
Target: Interferon regulatory factor 3, full length, phosphomimetic (IRF3, Homo sapiens, UniProt Q14653, residues 1-427, S386D/S396D/S398D/S402D/T404D/S405D)
Technique: protein-binding microarray
Form: double-stranded DNA, one strand shown
Sample: in vitro
Concentration: 2540 nM top
Notes: 60-bp whole probe
Together with: salmon DNA 0.4 mg/ml
Reference: random background probes
Direction: higher = stronger binding
Quantity: fitted relative affinity
Constant ends, left off below: GCCTAGCAC … GTCTTGATTCGCTTGACGCTGCTG
Target sequence (chain): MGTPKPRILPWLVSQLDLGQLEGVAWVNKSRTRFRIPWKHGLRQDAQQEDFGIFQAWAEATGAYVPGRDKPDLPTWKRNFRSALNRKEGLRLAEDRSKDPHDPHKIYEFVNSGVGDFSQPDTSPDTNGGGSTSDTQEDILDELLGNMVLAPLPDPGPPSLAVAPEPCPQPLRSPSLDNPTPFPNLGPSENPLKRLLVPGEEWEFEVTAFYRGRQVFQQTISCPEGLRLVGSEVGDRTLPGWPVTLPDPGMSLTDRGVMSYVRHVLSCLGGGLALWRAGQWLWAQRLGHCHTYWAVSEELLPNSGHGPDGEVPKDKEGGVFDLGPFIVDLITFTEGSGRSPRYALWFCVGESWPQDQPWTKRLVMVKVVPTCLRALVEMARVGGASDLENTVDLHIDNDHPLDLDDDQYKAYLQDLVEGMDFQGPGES
TCAAACCTGGGTCTCTGACTGTGCTAG: -0.79 z-score
GCCGGTATCGGTCTCGGGACGTGCTAG: 5 z-score
GCATTTTTCTAATTTACTTTGTGCTAG: 1.97 z-score
GACGGTCTCCTACTGGTGACGTGCTAG: 0.968 z-score
GACGAACTGAGTTTCCAGACGTGCTAG: 2.27 z-score
TACGGTTTCCTTCTCCTGACGTGCTAG: 9.39 z-score
GACTGACTGGGGTTTCGGGACGTGCTA: 0.535 z-score
GACGAACTAGGGACTGGAGACGTGCTA: -0.307 z-score

Sample 3
Target: Sal-like protein 4, full length isoform B (SALL4, Homo sapiens, UniProt Q9UJQ4-2, residues 1-616)
Technique: universal PBM
Form: double-stranded DNA, one strand shown
Sample: in vitro
Concentration: not given
Notes: 8-mer, flanks averaged, mean of replicates
Direction: higher = stronger binding
Quantity: E-score
Residues (chain): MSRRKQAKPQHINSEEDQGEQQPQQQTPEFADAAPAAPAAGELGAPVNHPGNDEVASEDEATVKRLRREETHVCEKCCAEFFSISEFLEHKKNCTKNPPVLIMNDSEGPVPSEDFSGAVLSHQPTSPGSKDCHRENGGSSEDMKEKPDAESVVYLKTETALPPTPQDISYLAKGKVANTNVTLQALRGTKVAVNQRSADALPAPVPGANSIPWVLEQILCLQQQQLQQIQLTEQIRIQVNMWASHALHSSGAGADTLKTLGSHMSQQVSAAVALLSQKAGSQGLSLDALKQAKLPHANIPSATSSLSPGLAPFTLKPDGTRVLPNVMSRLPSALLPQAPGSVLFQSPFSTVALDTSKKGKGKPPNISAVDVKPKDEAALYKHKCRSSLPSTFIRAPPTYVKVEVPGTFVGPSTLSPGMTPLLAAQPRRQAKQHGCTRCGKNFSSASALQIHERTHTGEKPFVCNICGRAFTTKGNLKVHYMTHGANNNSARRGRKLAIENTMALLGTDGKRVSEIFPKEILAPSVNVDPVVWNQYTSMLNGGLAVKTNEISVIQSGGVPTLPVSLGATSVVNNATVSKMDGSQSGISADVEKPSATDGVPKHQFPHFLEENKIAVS
CACCATAG: -0.095
ATCTTTGA: 0.167
AGCTATTG: 0.0722
CACGTAAA: 0.201
AAATTTTA: 0.351
ATAAGAGA: 0.257
AGTTAGCG: -0.126
AGAAGCCC: -0.111

Further values, each from its own experiment
Cell line: HEK-293T
Organism: VSV pseudotyped with SARS-CoV-2 spike
Concentration: 10 µM
Time: 16 h
COc1cc([C@@H]2c3cc4c(cc3[C@H](O)[C@H]3COC(=O)[C@H]23)OCO4)cc(OC)c1OC
GFP-positive cells (pseudovirus infection, FDA-approved drug library screen; reference: vehicle-treated): 17.7%

CC(C)NCC(O)COc1ccc(CC(N)=O)cc1 (stereo not shown)
pseudovirus infection: 99.1%

A few entries again (sample 2):
GCCGGTATCGGTCTCGGGACGTGCTAG: 5 z-score
GCATTTTTCTAATTTACTTTGTGCTAG: 1.97 z-score
GACGGTCTCCTACTGGTGACGTGCTAG: 0.968 z-score
GACGAACTGAGTTTCCAGACGTGCTAG: 2.27 z-score
